{"data": "Published values gathered from unrelated publications", "target": "Insulin receptor-related protein (INSRR, Homo sapiens, UniProt P14616)", "note": "Compare with care: the assays were run in different laboratories.", "sequence of UniProt P14616 (whole entry, looked up)": "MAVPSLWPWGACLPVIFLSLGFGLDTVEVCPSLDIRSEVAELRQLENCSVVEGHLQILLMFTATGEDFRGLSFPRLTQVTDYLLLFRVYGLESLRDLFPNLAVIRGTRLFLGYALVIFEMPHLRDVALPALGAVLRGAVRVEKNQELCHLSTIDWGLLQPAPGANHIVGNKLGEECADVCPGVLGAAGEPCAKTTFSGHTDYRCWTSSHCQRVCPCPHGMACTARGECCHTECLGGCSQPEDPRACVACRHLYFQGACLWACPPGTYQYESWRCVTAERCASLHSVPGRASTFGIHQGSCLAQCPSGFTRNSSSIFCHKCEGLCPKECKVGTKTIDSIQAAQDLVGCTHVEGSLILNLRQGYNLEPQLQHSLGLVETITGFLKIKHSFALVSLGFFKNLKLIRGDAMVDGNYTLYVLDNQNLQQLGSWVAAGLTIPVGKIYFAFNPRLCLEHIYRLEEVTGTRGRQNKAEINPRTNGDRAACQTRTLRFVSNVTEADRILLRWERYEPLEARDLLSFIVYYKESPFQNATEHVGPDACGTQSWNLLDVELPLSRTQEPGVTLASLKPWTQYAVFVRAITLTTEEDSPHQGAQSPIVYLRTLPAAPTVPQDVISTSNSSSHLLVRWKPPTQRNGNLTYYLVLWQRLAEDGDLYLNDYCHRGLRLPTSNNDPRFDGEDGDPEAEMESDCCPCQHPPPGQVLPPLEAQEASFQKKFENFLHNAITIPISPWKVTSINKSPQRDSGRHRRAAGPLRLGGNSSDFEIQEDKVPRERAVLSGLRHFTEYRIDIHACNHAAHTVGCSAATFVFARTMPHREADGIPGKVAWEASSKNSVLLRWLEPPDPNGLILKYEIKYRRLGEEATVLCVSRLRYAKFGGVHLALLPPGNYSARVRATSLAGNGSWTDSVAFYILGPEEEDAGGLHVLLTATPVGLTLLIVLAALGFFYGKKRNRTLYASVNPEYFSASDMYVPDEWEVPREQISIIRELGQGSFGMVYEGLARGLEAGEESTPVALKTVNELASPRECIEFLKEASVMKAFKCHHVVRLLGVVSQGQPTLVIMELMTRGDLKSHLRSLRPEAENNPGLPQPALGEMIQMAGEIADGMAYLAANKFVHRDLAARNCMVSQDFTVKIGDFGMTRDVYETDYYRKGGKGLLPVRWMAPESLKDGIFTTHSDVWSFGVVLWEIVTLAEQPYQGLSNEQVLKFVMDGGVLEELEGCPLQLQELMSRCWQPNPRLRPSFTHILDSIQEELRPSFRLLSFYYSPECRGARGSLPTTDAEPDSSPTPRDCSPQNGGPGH"}
{"Compound": "O=C(NC1CCC1)c1ccc2nc(-c3cccc(NS(=O)(=O)NCCN4CCCCC4)c3)cn2c1", "assay": "enzyme activity", "setting": "10 µM", "measurement": "remaining activity", "value": "100%"}
{"Compound": "C#Cc1cc(-c2cc(Nc3nc(N[C@@H](C)c4ccc(F)cn4)ncc3Cl)n[nH]2)ccc1C=O", "assay": "enzyme activity, inhibitor", "setting": "0.2 µM", "measurement": "inhibition", "value": "43%"}
{"Compound": "COc1cc(F)ccc1-c1ncnc(Nc2cccc(C[S@](C)(=N)=O)c2)n1", "assay": "kinase activity", "setting": "10 µM, together with: 10 µM ATP", "measurement": "remaining activity", "value": "54%"}
{"Compound": "C=CC(=O)N1CCC(COCC(=O)N2CCN(c3nc(-c4cnc(N)nc4C(F)F)nc(N4CCOC[C@@H]4C)n3)CC2)CC1", "assay": "KINOMEscan", "setting": "1 µM", "measurement": "remaining binding", "value": "87%"}
{"Compound": "COc1cc(-c2cncc3c2CN(C)Cc2cc(N4CCNCC4)ccc2-3)cc(OC)c1OC", "assay": "kinase activity", "setting": "1 µM, human enzyme, together with: ATP 10 µM", "scale": "relative to: DMSO control", "measurement": "remaining activity", "value": "96%"}
{"Compound": "CNc1ncc2c(/C=C/C(=O)N3CCC(OC)CC3)nn(Cc3cccc(C(F)(F)F)c3)c2n1", "assay": "kinase activity, inhibitor", "setting": "1 µM", "scale": "relative to: untreated control", "measurement": "remaining activity", "value": "94%"}
{"Compound": "O=C1NC(=O)/C(=C/c2ccc(-c3ccc(F)cc3O)o2)S1", "assay": "enzyme activity", "setting": "10 µM", "measurement": "remaining activity", "value": "36%"}
{"Compound": "C=CC(=O)N1CCC[C@@H](n2nc(-c3ccc(Oc4ccccc4)cc3)c3c(N)ncnc32)C1", "setting": "0.1 µM", "measurement": "remaining activity", "value": "130%"}
{"Compound": "CCN1CCN(Cc2ccc(NC(=O)c3ccc(C)c(/C=C/c4cnc5[nH]ccc5c4OC)c3)cc2C(F)(F)F)CC1", "assay": "kinase activity", "setting": "1 µM", "measurement": "remaining activity", "value": "100%"}
